Experimental data from different studies.
Compare with care: the assays were run in different laboratories. “And” joins repeats or separate records; there may be more than shown. Numbers after ± are the reported error.
TRPM8: Transient receptor potential cation channel subfamily M member 8 (TRPM8, Homo sapiens, UniProt Q7Z2W7)
spsB: Signal peptidase IB (spsB, Staphylococcus aureus, UniProt Q5HHB9)
KCNQ1 with KCNE1: Potassium voltage-gated channel subfamily KQT member 1, with KCNE1 (KCNQ1, Homo sapiens, UniProt P51787)
MYLK2: Myosin light chain kinase 2, skeletal/cardiac muscle (MYLK2, Homo sapiens, UniProt Q9H1R3)
CAMKK2: Calcium/calmodulin-dependent protein kinase kinase 2 (CAMKK2, Homo sapiens, UniProt Q96RR4)

With CNc1ncc2c(/C=C/C(=O)N3CCC(OC)CC3)nn(Cc3cccc(C(F)(F)F)c3)c2n1 the remaining activity was 89% (PRKCG (Homo sapiens, UniProt P05129); kinase activity, inhibitor; 1 µM; relative to: untreated control).
O=C1Nc2ccc(Cl)cc2C1=Cc1cc(Cl)c(O)c(Cl)c1 has a remaining activity of 91.5 ± 4.69% (TRPM8; antagonist; HEK293; 5 µM; relative to: control).
For CNC(=O)c1cc(Oc2ccc(N(C)C(=O)Nc3ccc(Cl)c(C(F)(F)F)c3)cc2)ccn1, the remaining activity was 130% (spsB; peptidase activity, activator, FRET peptide cleavage; Staphylococcus aureus, membranes; 100 µM; relative to: DMSO).
The remaining activity of C=CC(=O)N1CCC[C@@H](n2nc(-c3ccc(Oc4ccccc4)cc3)c3c(N)ncnc32)C1 is reported as 134% (Insulin-like growth factor-binding protein 5 (Homo sapiens, UniProt P24593); 0.1 µM).
CN(C(=O)Nc1ccc(Cl)c(C(F)(F)F)c1)c1ccc2c(c1)OC(F)(F)O2 has a remaining activity of 141% (spsB; peptidase activity, activator, FRET peptide cleavage; Staphylococcus aureus, membranes; 100 µM; relative to: DMSO).
The remaining activity of COc1cc(F)ccc1-c1ncnc(Nc2cccc(C[S@](C)(=N)=O)c2)n1 is reported as 85% (RPS6KA1 (Homo sapiens, UniProt Q15418); kinase activity; 10 µM, added: 10 µM ATP).
With CCOc1cc(N2CCN(C)CC2)ccc1Nc1nc(N)n(C(=O)NCc2ccccc2S(=O)(=O)C(C)C)n1 the remaining activity was 21% (ROCK1 (Homo sapiens, UniProt Q13464); enzyme activity; 10 µM; relative to: control).
Cc1ccc2c(c1)C(=O)[C@]1(O)CCN(c3ccc([N+](=O)[O-])cc3)C1=N2 has a remaining activity of roughly 2% (Myosin-7 (MYH7, Bos taurus, UniProt Q9BE39); actin-activated ATPase activity, inhibitor; 500 µM).
CCN(CCO)CCCC(C)Nc1ccnc2cc(Cl)ccc12 (stereo not shown) gave a remaining activity of 97.8% (KCNQ1 with KCNE1; IKs current, patch clamp; HEK293; 3 µM; relative to: pre-drug current).
COc1cc2ncnc(Nc3ccc(Oc4ccccc4)cc3)c2cc1OC gave a remaining activity of 108 ± 6.8% (TRPM8; antagonist; HEK293; 5 µM; relative to: control).
For C=CC(=O)N1CCC([C@@H]2CCNc3c(C(N)=O)c(-c4ccc(Oc5ccccc5)cc4)nn32)CC1, the remaining activity was 78.4 ± 0.8% (MAP3K11 (Homo sapiens, UniProt Q16584); kinase activity, inhibitor, HotSpot radiometric; 100 nM, added: ATP 10 µM).
The remaining activity of O=C(Nc1ccc(Nc2ccccc2)cc1)Nc1ccc(Cl)c(C(F)(F)F)c1 is reported as 186% (spsB; peptidase activity, activator, FRET peptide cleavage; Staphylococcus aureus, membranes; 50 µM; relative to: DMSO).
With CCN(CC)CCCC(C)Nc1ccnc2cc(Cl)ccc12 (stereo not shown) the remaining activity was 109% (KCNQ1 with KCNE1; IKs current, patch clamp; HEK293; 30 µM; relative to: pre-drug current).
O=C(NC1CCC1)c1ccc2nc(-c3cccc(NS(=O)(=O)NCCN4CCCCC4)c3)cn2c1 gave a remaining activity of 88% (TNIK (Homo sapiens, UniProt Q9UKE5); enzyme activity; 10 µM).
CCOc1cc2ncnc(Nc3cccc(Br)c3)c2cc1OCC gave a remaining activity of 105 ± 1.14% (TRPM8; antagonist; HEK293; 5 µM; relative to: control).
For Cc1cc(Nc2cc(N3CCN(C)CC3)nc(Sc3ccc(NC(=O)C4CC4)cc3)n2)[nH]n1, the remaining activity was 93% (FLT3 (Homo sapiens, UniProt P36888, D835Y); kinase activity; 0.03 µM; relative to: control).
COc1ccc(F)cc1C(=O)NCc1ccc(-c2nn([C@@H](C)C(F)(F)F)c(N)c2C(N)=O)cc1 has a remaining activity of 63.2 ± 3.8% (LCK (Homo sapiens, UniProt P06239); kinase activity, inhibitor, HotSpot radiometric; 1000 nM, added: ATP at Km).
COc1cc(N2CCN(C)CC2)ccc1Nc1nc(N)n(C(=S)NCc2c(Cl)cccc2Cl)n1 gave a remaining activity of 15% (MYLK2; enzyme activity; 10 µM; relative to: control).
The remaining activity of CCc1ccc(NC(=O)Nc2ccc(Cl)c(C(F)(F)F)c2)cc1 is reported as 179% (spsB; peptidase activity, activator, FRET peptide cleavage; Staphylococcus aureus, membranes; 50 µM; relative to: DMSO).
With CCCCc1c(-c2ccc(OC)cc2)[nH]c2nccnc12 the remaining activity was 94.8 ± 8.13% (TRPM8; antagonist; HEK293; 5 µM; relative to: control).
With C=CC(=O)N1CCC[C@@H](n2nc(-c3ccc(Oc4ccccc4)cc3)c3c(N)ncnc32)C1 the remaining activity was 102.9 ± 0.6% (CAMKK2; kinase activity, inhibitor, HotSpot radiometric; 100 nM, added: ATP 10 µM).
The remaining activity of CCCCNC(=O)c1ccc(NC(=O)Nc2ccc(Cl)c(C(F)(F)F)c2)cc1 is reported as 128% (spsB; peptidase activity, activator, FRET peptide cleavage; Staphylococcus aureus, membranes; 50 µM; relative to: DMSO).
For Cc1noc(C)c1CN(C(=O)CCc1nc(Cc2ccccc2)no1)c1ccccc1, the remaining activity was 0.2% and 0.04% (CXCR4 (Homo sapiens, UniProt P61073); arrestin recruitment, antagonist, DiscoverX arrestin; 30 µM; relative to: untreated).
With NC/C(=C\F)COc1cccc(Cn2c(=S)[nH]c(=O)c3[nH]cnc32)c1 the remaining activity was 7.92% and 8.76% (Peroxidasin homolog (PXDN, Homo sapiens, UniProt Q92626); enzyme activity, inhibitor, Amplex UltraRed; 60 µM; relative to: control).
C[C@@H](Oc1ccc(S(C)(=O)=O)cc1C(=O)N1C[C@@H]2C[C@]2(c2cc(C(F)(F)F)on2)C1)C(F)(F)F gave a remaining activity of 17.1% (SLC6A9 (Homo sapiens, UniProt P48067); glycine uptake, inhibitor, [3H]glycine uptake; 0.003 µM, log concentration 3, added: [3H]glycine, 3.5 mg/mL methyl-β-cyclodextrin; relative to: no inhibitor).
For O=C(Nc1ccc(C(=O)Nc2ccccc2)cc1)Nc1ccc(Cl)c(C(F)(F)F)c1, the remaining activity was 110% (spsB; peptidase activity, activator, FRET peptide cleavage; Staphylococcus aureus, membranes; 10 µM; relative to: DMSO).
With O=C1c2ccccc2-c2nc3nnnn3nc21 the remaining activity was 85 ± 7.68% (TRPM8; antagonist; HEK293; 5 µM; relative to: control).
The remaining activity of COc1cc(Nc2ncc3c(n2)-c2ccc(Cl)cc2C(c2c(F)cccc2OC)=NC3)ccc1C(=O)O is reported as 83% (CHEK1; kinase activity; 1 µM).
The remaining activity of O=C1NC(=O)/C(=C/c2ccc(-c3ccc(F)cc3O)o2)S1 is reported as 88% (PKN2 (Homo sapiens, UniProt Q16513); enzyme activity; 10 µM).
The remaining activity of CC#CC(=O)N1CCC[C@H]1c1nc(-c2ccc(C(=O)Nc3ccccn3)cc2)c2c(N)nccn12 is reported as 102.9 ± 0.8% (CAMKK2; kinase activity, inhibitor, HotSpot radiometric; 100 nM, added: ATP 10 µM).
With O=C(Nc1ccc2c(c1)CCC2)Nc1ccc(Cl)c(C(F)(F)F)c1 the remaining activity was 134% (spsB; peptidase activity, activator, FRET peptide cleavage; Staphylococcus aureus, membranes; 50 µM; relative to: DMSO).
For COc1cc2ncnc(Nc3ccc(OCc4ccccc4)cc3)c2cc1OC, the remaining activity was 95.4 ± 10.7% (TRPM8; antagonist; HEK293; 5 µM; relative to: control).
For COc1cc(-c2cncc3c2CN(C)Cc2cc(N4CCNCC4)ccc2-3)cc(OC)c1OC, the remaining activity was 105% (MYLK2; kinase activity; 1 µM, human enzyme, added: ATP 10 µM; relative to: DMSO control).
CCN(CC)CCNC(=O)c1c(C)[nH]c(/C=C2\C(=O)Nc3ccc(Cl)cc32)c1C has a remaining activity of 94.3 ± 6.71% (TRPM8; antagonist; HEK293; 5 µM; relative to: control).
With O=C(Nc1cccc(NC(=O)Nc2ccc(Cl)c(C(F)(F)F)c2)c1)Nc1ccc(Cl)c(C(F)(F)F)c1 the remaining activity was 177% (spsB; peptidase activity, activator, FRET peptide cleavage; Staphylococcus aureus, membranes; 50 µM; relative to: DMSO).
For CN(C)c1ccc(C=C2C(=O)Nc3ccccc32)cc1, the remaining activity was 88 ± 7.11% (TRPM8; antagonist; HEK293; 5 µM; relative to: control).
For O=C(O)c1ccc(Nc2ncc3c(n2)-c2ccc(Cl)cc2C(c2c(F)cccc2F)=NC3)cc1, the remaining activity was 87% (EphA8(h); kinase activity; 1 µM).
